Measured values gathered from unrelated publications.
Each numbered part is a random draw from the data of one study; scales do not carry over between parts. Values joined by “and” are separate records of one study, mostly repeats; a detail may differ.
UniProt Q16853, sequence (whole entry, looked up): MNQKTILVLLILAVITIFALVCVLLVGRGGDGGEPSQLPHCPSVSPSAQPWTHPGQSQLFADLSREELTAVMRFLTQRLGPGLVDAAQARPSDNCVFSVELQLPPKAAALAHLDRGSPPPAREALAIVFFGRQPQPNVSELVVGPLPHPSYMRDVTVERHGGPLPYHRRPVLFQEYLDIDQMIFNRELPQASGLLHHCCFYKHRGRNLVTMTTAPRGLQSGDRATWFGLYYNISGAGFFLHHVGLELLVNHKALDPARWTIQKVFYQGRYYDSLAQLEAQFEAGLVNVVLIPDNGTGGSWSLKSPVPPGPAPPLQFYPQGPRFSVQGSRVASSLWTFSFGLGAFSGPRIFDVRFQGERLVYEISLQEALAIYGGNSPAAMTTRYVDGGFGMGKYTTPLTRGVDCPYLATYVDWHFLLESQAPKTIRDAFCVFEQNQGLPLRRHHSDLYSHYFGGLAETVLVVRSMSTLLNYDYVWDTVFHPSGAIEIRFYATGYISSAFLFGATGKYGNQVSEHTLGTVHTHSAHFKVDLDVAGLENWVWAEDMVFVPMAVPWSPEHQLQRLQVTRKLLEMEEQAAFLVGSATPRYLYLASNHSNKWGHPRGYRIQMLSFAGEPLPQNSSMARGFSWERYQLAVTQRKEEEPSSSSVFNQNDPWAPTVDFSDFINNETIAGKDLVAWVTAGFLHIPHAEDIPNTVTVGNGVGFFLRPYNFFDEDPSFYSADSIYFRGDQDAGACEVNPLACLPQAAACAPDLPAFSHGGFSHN

Sample 1 — observed: thermal unfolding; method: differential scanning fluorimetry; tested at: 5.5 µM; reading: higher = more unfolded
Compound: C[C@@H]1CN(c2ccc(-c3cc(C(=O)NCCOCCOCCOCCOCCNC(=O)Cn4cc(-c5[nH]cc(C(=O)N[C@@H](CC(N)=O)c6ccc(F)c(Cl)c6)c5-c5ccc(Cl)cc5F)cn4)ccc3F)cc2NC(=O)c2c[nH]c(=O)cc2C(F)(F)F)C[C@H](C)N1C
DCAF1: DDB1- and CUL4-associated factor 1 (DCAF1, Homo sapiens, UniProt Q9Y4B6)
UniProt Q9Y4B6, sequence (whole entry, looked up): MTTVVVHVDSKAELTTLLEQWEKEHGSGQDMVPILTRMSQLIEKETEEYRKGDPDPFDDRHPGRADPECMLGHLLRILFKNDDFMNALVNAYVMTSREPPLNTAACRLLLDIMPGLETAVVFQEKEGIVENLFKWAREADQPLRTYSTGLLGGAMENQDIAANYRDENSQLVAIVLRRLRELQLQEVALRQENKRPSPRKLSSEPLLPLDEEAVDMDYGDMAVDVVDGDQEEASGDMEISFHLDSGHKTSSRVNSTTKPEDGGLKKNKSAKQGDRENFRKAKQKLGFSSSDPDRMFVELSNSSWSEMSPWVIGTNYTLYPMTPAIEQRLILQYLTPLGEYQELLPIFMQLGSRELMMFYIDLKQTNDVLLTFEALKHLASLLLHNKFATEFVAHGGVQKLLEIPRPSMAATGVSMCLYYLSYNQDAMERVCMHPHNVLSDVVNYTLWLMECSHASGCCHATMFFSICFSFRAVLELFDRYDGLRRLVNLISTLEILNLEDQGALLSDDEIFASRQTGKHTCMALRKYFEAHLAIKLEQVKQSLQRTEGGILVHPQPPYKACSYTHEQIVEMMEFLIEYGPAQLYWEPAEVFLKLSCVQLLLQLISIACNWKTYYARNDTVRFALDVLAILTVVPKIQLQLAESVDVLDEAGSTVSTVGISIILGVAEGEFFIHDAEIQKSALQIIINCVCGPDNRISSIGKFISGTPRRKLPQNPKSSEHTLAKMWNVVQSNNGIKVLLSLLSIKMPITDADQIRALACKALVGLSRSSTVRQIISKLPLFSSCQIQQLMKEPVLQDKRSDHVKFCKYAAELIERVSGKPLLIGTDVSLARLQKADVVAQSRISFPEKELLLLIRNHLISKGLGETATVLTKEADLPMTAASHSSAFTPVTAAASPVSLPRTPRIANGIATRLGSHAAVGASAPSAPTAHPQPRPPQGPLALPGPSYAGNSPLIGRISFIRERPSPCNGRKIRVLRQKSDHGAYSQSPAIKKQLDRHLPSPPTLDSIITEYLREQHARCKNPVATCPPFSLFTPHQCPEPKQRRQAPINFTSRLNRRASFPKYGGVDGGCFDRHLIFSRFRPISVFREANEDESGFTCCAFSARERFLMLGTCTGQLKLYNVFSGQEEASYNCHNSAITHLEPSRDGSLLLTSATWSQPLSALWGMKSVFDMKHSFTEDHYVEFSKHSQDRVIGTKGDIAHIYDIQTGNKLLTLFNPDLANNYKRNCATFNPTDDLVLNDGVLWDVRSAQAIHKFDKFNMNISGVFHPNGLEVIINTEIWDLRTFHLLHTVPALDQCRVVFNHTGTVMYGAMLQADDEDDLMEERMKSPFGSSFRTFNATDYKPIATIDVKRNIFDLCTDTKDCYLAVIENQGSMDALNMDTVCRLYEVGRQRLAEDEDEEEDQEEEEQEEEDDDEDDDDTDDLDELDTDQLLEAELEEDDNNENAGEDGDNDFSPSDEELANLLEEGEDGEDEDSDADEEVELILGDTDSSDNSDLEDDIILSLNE
The “SYPRO Orange fluorescence” was 33200 a.u. (DCAF1; 92.01 °C).
The “SYPRO Orange fluorescence” was 36300 a.u. (DCAF1; 88.81 °C).
The “SYPRO Orange fluorescence” was 12500 a.u. (DCAF1; 45.8 °C).
DCAF1; 40.6 °C — “SYPRO Orange fluorescence”: 10600 a.u.
For DCAF1; 39 °C: “SYPRO Orange fluorescence” read 9920 a.u.
The “SYPRO Orange fluorescence” was 8260 a.u. (DCAF1; 31.6 °C).
The “SYPRO Orange fluorescence” was 14300 a.u. (WDR5 (Homo sapiens, UniProt P61964); 46.6 °C).

Sample 2 — SMILES: O=c1[nH]c(=S)n(C[C@H]2CCCO2)c2nc[nH]c12; observed: enzyme activity
MPO: Myeloperoxidase (MPO, Homo sapiens, UniProt P05164)
UniProt P05164, sequence (whole entry, looked up): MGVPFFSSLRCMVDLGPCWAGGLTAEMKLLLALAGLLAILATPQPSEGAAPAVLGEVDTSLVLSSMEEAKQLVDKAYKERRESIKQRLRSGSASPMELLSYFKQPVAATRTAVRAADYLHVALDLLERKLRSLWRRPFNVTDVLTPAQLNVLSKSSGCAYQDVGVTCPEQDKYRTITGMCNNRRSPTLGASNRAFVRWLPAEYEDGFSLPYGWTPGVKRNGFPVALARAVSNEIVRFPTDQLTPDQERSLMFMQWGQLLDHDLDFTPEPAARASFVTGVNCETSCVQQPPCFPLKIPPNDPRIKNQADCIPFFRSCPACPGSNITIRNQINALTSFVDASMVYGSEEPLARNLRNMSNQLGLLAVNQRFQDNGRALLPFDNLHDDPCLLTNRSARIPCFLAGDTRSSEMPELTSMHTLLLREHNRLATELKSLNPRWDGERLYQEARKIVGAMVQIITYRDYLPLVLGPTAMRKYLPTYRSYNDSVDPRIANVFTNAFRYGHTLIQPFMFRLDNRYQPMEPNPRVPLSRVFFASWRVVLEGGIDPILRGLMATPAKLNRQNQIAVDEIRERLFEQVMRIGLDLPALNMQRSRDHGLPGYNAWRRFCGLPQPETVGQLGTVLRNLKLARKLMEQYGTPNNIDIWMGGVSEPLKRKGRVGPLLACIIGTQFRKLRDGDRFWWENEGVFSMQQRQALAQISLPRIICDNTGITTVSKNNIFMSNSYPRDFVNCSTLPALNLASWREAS
For MPO; 0.0137 µM: inhibition read 4.24% and 10.6% and 19.6% and 0.109% and 1.52% and 14.6%.
For MPO; inhibitor, fluorescence; 15 µM: inhibition read 99.5%.
For AOC3 (Homo sapiens, UniProt Q16853); Amplex Red H2O2 production; 0.0137 µM: inhibition read 8.82%.
MPO; 0.0069 µM — inhibition: 8.17% and 13.3% and 4.34% and 2.5% and 32.9% and 9.69% and 1.73%.

Sample 3 — cell line: U-87 MG; tested at: concentration not given; baseline: DMSO
Structure (SMILES): CCN1/C(=C/C=C2\CCCC(/C=C/C3=[N+](CC)c4ccccc4C3(C)C)=C2NCCCCCCCCN2CCC(Nc3nc4ccccc4n3Cc3ccc(F)cc3)CC2)C(C)(C)c2ccccc21
item: CDCA3 mRNA — “log2 fold change”: -2.15.
For item: IL6 mRNA: “log2 fold change” read 4.6.
For item: PCDHGA10 mRNA: “log2 fold change” read -1.4.
The “log2 fold change” was -1.98 (item: SIM1 mRNA).
For item: DZIP3 mRNA: “log2 fold change” read -0.939.
It gave -1.45 for “log2 fold change” (item: LBR mRNA).
For item: CGNL1 mRNA: “log2 fold change” read -2.56.
It gave -1.78 for “log2 fold change” (item: EEPD1 mRNA).
For item: DUS4L mRNA: “log2 fold change” read 0.811.
The “log2 fold change” was -2.06 (item: HJURP mRNA).
It gave -2.05 for “log2 fold change” (item: APOBEC3B mRNA).

Sample 4 — observed: binding; method: HTRF
Structure (SMILES): Cc1ncc(-c2cc3c(C(N)=O)c(-c4c(C)ccc(O)c4C)cnc3[nH]2)cn1
Target: Membrane-associated tyrosine- and threonine-specific cdc2-inhibitory kinase (PKMYT1, Homo sapiens, UniProt Q99640)
UniProt Q99640, sequence (whole entry, looked up): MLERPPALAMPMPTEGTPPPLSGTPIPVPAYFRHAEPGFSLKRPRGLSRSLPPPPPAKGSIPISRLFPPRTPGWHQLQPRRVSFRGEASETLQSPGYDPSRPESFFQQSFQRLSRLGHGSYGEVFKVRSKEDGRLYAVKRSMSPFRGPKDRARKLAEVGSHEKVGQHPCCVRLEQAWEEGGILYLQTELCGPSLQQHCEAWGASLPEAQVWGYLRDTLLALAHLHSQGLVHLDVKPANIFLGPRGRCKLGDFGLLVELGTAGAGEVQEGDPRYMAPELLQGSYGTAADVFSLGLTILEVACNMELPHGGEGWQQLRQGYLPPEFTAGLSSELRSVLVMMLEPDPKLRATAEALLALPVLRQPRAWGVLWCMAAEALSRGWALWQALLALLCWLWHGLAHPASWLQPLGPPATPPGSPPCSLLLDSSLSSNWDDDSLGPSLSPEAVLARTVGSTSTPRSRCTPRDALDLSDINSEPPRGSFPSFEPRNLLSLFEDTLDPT
The inhibition was -15.2% and -14.4% (1.52 nM).
123.46 nM — inhibition: 43.8% and 45.6%.
The inhibition was -4.52% and 0.35% (13.72 nM).
For 3333.33 nM: inhibition read 97.1% and 94.3%.
370.37 nM — inhibition: 73.1% and 74.4%.
0.51 nM — inhibition: -9% and -16.6%.
It gave 99.4% and 99.8% for inhibition (10000 nM).
The inhibition was -11.1% and -12.5% (4.57 nM).

Excerpt of the above (sample 1):
The “SYPRO Orange fluorescence” was 12500 a.u. (DCAF1; 45.8 °C).
For DCAF1; 39 °C: “SYPRO Orange fluorescence” read 9920 a.u.
The “SYPRO Orange fluorescence” was 8260 a.u. (DCAF1; 31.6 °C).
The “SYPRO Orange fluorescence” was 33200 a.u. (DCAF1; 92.01 °C).
